Measurements gathered from unrelated publications.
Parts stem from different laboratories: compare values within a part only.
Sequence of UniProt P41595 (whole entry, looked up): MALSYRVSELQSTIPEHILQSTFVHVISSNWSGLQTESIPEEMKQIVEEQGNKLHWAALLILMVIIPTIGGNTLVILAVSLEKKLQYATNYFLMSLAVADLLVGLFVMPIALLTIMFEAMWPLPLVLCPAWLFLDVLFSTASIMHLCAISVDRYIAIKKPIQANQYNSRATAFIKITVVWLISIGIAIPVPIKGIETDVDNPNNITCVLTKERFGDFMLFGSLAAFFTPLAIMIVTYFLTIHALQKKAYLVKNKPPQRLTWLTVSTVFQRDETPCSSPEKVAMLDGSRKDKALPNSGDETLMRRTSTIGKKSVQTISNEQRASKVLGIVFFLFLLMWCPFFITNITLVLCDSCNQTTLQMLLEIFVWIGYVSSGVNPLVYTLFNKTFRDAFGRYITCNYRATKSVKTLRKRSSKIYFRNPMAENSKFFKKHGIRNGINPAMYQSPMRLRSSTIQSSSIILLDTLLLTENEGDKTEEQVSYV
Sequence of UniProt P14416 (whole entry, looked up): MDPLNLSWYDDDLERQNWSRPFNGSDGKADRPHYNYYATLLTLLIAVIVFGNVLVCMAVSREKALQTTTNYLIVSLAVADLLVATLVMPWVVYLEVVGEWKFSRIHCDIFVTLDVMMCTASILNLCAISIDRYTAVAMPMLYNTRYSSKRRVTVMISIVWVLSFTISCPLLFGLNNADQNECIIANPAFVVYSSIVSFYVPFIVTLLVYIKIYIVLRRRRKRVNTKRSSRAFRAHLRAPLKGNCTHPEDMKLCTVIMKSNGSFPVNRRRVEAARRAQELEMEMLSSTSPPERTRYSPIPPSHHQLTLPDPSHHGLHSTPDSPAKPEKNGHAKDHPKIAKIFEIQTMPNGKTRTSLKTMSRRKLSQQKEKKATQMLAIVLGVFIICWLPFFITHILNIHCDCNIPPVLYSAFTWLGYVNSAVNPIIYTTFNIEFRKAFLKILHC

Study 1
Target: Protein max, full length (MAX, Homo sapiens, UniProt P61244-2, residues 1-151)
Method: protein-binding microarray
Form: double-stranded DNA, one strand shown
Sample: in vitro
Tested at: not given
Setting: k-mer, scored over probes, only values ≥0.25
Reading: higher = stronger binding
The E-score of `ACGTGGAG` is reported as 0.431.
`ACGCTGAT` gave an E-score of 0.285.
With `CATGCGTC` the E-score was 0.438.
`CGTGGACC` has an E-score of 0.261.
With `GCATATGA` the E-score was 0.298.
`CGCCCCAA` has an E-score of 0.253.
`CCACGCTC` has an E-score of 0.395.
`CCATGCGC` has an E-score of 0.445.

Study 2
Target: Testis-specific serine/threonine-protein kinase 2 (TSSK2, Homo sapiens, UniProt Q96PF2)
Effect on: enzyme activity
Action: inhibitor
Tested at: 0.5 µM
Reference: control
Construct (Q96PF2 1-358): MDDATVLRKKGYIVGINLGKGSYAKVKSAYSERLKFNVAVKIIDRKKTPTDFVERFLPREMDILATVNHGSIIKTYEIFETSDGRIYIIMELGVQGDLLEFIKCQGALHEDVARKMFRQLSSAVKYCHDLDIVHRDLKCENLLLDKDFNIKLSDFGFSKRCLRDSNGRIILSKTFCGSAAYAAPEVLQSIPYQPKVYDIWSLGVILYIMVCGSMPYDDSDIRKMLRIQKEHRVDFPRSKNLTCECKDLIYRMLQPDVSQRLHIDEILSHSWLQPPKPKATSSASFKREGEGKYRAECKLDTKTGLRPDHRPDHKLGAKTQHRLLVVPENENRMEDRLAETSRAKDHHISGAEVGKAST
`OCC(O)CCON=C1C(c2c(O)[nH]c3ccccc23)=Nc2ccccc21` (stereo not shown) has a remaining activity of 96.2%.
`O=C1NC(=O)C(c2cn(CCCn3ccnc3)c3ccccc23)=C1Nc1ccccc1` gave a remaining activity of 97.9%.
With `COc1ccc(OC)c2c(=S)c3ccccc3[nH]c12` the remaining activity was 108%.
The remaining activity of `Cn1c2ccccc2c2c3c(c4c5ccccc5n(CCC#N)c4c21)CNC3=O` is reported as 74.3%.
`CCOC(=O)c1c(C)[nH]c(/C=C2\C(=O)Nc3ccccc32)c1C` gave a remaining activity of 95.9%.
`CO[C@H]1C[C@@H]2CC[C@@H](C)[C@@](O)(O2)C(=O)C(=O)N2CCCC[C@H]2C(=O)O[C@H]([C@H](C)C[C@@H]2CC[C@@H](O)[C@H](OC)C2)CC(=O)[C@H](C)/C=C(\C)[C@@H](O)[C@@H](OC)C(=O)[C@H](C)C[C@H](C)/C=C/C=C/C=C/1C` has a remaining activity of 99.8%.
`COc1cc2nccc(Oc3ccc(NC(=S)NC(=O)c4ccccc4C)cc3)c2cc1OC` has a remaining activity of 86.7%.
`O=C(Nc1cccc(Nc2cc(Nc3cccc(C(F)(F)F)c3)ncn2)c1)C1CC1` has a remaining activity of 103%.
With `N#CC(C#N)=C(N)/C(C#N)=C/c1ccc(O)cc1` the remaining activity was 94.6%.
For `Cc1ccc(Nc2nccc(N(C)c3ccc4c(C)n(C)nc4c3)n2)cc1S(N)(=O)=O`, the remaining activity was 102%.
`COc1cc2ncnc(Nc3ccc(Oc4ccccc4)cc3)c2cc1OC` gave a remaining activity of 103%.
`CC(C)[C@H](CO)Nc1nc(Nc2cc(N)cc(Cl)c2)c2ncn(C(C)C)c2n1` has a remaining activity of 102%.
With `C#Cc1cccc(Nc2ncnc3cc(OCCOC)c(OCCOC)cc23)c1` the remaining activity was 87.6%.
For `COc1cc2ncnc(Nc3ccc(F)c(Cl)c3)c2cc1OCCCN1CCOCC1`, the remaining activity was 91.5%.

Study 3
Target: Centromere-binding protein 1, full length, N-terminal tag (CBF1, Saccharomyces cerevisiae, UniProt P17106, residues 1-351)
Sequence of UniProt P17106 (whole entry, looked up): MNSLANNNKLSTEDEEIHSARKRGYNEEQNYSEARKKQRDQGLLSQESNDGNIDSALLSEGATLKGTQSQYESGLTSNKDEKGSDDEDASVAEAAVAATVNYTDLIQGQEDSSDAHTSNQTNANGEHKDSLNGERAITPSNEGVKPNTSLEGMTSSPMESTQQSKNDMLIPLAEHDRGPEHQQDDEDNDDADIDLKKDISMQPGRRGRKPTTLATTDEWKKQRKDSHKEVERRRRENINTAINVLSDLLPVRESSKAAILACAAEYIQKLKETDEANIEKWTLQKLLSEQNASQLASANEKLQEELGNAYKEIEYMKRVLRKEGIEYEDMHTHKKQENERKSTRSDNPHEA
Method: protein-binding microarray
Form: double-stranded DNA, one strand shown
Sample: in vitro
Tested at: 0.8 µM
Setting: whole 60-bp probe, no competitor
Reading: higher = stronger binding
For `GAAATTTGTACTTGTTTCATCAGATTCTTACATTAGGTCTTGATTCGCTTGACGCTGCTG`, the fluorescence intensity was 514 a.u.
`GAAAATATCGCGAACCGCGTGAAGTGGCTTAGTTAGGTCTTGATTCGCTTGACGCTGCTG` gave a fluorescence intensity of 486 a.u.
`CTATAACGCATCAATCTCCTGTGGAAGAGTGCTTTCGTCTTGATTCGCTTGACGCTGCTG` has a fluorescence intensity of 479 a.u.
For `CTAATATACAAATATCACCTGTAATATATAAGATTCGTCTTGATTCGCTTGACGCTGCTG`, the fluorescence intensity was 609 a.u.
With `GAATTAAAGTAGATTCTCCTGATGACCCATTCATAGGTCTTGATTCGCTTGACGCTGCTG` the fluorescence intensity was 537 a.u.
`CTACATCGGCCGGCCCATGTGAAAAGGAAGTATTTCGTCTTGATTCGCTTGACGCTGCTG` gave a fluorescence intensity of 535 a.u.
For `CCTAACTACTATATCCACGTGCTATAGCTTCGTACAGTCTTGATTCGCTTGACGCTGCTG`, the fluorescence intensity was 4500 a.u.
`CTAGTCTACTTCTTTCACGTTACCATTTACTAATTCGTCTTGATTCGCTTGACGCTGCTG` has a fluorescence intensity of 875 a.u.

Mixed results
Tested at: 10 µM
HRH1: Histamine H1 receptor (HRH1, Homo sapiens, UniProt P35367)
Sequence of UniProt P35367 (whole entry, looked up): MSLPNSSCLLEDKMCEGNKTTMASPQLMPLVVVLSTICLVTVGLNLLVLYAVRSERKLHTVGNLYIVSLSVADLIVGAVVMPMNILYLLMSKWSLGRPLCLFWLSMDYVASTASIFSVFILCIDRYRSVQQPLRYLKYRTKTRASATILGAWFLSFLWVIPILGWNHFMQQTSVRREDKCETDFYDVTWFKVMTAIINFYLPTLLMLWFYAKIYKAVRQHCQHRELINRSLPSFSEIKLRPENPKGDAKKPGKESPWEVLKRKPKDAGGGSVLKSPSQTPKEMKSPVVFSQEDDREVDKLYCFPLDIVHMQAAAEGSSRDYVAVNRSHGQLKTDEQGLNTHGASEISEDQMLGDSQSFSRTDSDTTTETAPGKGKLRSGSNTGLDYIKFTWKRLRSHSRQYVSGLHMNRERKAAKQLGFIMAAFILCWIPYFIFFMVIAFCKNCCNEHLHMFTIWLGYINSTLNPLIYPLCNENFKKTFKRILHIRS
`Cc1c(NC(=O)c2cc(C(N)=O)nc3cc(F)ccc23)c(C(F)(F)F)nn1Cc1ccc(C#N)cc1` has an inhibition of -37.7% (HRH1; ligand displacement).
With `N#CN1CC[C@H](C(=O)Nc2nc3c(s2)CN(C(=O)CN=[N+]=[N-])CC3)C1` the inhibition was 0.55% (DRD2 (Homo sapiens, UniProt P14416); ligand displacement).
For `CNC(=O)Nc1ccc2c(c1)CC[C@]21OC(=O)N(CC(=O)N(Cc2ccc(F)cc2)[C@@H](C)C(F)(F)F)C1=O`, the inhibition was 1.99% (HRH1; ligand displacement).
With `Cc1nc(N2CC[C@@H](O)C2)ncc1-c1cc(C(F)(F)F)cc2[nH]ncc12` the inhibition was -1.84% (HTR2B (Homo sapiens, UniProt P41595); binding, radioligand binding).

Excerpt of the above (study 1):
`ACGCTGAT` gave an E-score of 0.285.
`CGCCCCAA` has an E-score of 0.253.
